# Assay results of several laboratories.
# Parts stem from different laboratories: compare values within a part only. Positions count from the first letter of the parent shown.

# Block 1 — method: DHFR PCA, dose-response; sample: yeast; notes: Hill fit, mean, not affinity; added: (+)-ABA, dose series; reading: lower = more sensitive
# Target: ABI1, truncated, D143A, DHFR fusion (Arabidopsis thaliana, UniProt P49597)
# Starting sequence: PYL1, truncated, DHFR fusion (Arabidopsis thaliana, UniProt Q8VZS8); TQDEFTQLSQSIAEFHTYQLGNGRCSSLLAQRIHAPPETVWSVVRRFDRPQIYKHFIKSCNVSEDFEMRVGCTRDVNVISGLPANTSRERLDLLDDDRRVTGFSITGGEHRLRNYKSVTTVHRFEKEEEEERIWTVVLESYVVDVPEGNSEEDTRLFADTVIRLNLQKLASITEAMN
Substitution,ABA EC50
Q19N,2.91 µM
S117C,74.5 µM
L138C,32.7 µM
Y53Q,197 µM
R132V,1.98 µM
S171E,0.733 µM
E152R,7.02 µM
L93N,67.7 µM
L29T,29.8 µM
R69S,2.93 µM
E125A,2.5 µM
S9G,2.82 µM
S171L,3.27 µM
P146L,208 µM
P37Q,29.5 µM
T106A,38.3 µM
I79G,55.6 µM
G71H,69.5 µM
I52A,2.85 µM

# Block 2 — target: CCNB2, cyclin fold, Cln2 fusion (human); method: yeast growth competition, sequencing; sample: yeast; notes: weak parent motif; reference: not given; reading: higher = stronger binding
# Starting sequence: REPIN1 docking peptide (human); QSFRGWVALVLHL
Substitution,normalised enrichment score
ASFRGWVALVLHL [Q1A],-0.124
QSFRGAVALVLHL [W6A],-0.139
QSFRGWVALVAHL [L11A],0.882
QSFAGWVALVLHL [R4A],-0.289
QSFRGWVAAVLHL [L9A],-0.34
QSFRAWVALVLHL [G5A],0.626

# Block 3 — method: RNA Bind-n-Seq; molecule type: RNA; sample: in vitro; tested at: 200 nM; notes: whole 134-nt RNA, ends assumed; added: 150 mM LiCl; reference: input library; reading: higher = stronger binding; each molecule: 7-deaza-guanosine replaces G
# Target: Fragile X messenger ribonucleoprotein 1, C-terminal low-complexity region (Fmr1, Mus musculus, UniProt P35922)
# Constant ends, left off below: GGGAGUUCUACAGUCCGACGAUC … UGGAAUUCUCGGGUGUCAAGG
Oligonucleotide,log2 enrichment
UCAAGUCCUGUGCUACACAUCGUAUGUACCGAAUCGGGUGGGUGGGAAAAAGGGAAAGUAUUAUGUUACGCCGUUCGGAUCUGCACUUCC,-0.949
UAACUUUAGAGGAGGAUCUGAUGGAUAUGGCAGUGGACGUCGAUUUGGGGAUGGCUAUAAUGGGUAUGGAGGAGGACCUGGAGGUGGCAA,0.437
CCUGUGCUACACAUCGUAUGUACCGAAUCGGGGAAAAAGGGGUUUUUUUGGGGUUUGGGGAAAGUAUUAUGUUACGCCGUUCGGAUCUGC,-1.95
AAGUCCUGUGCUACACAUCGUAUGUACCGAAUCGGUUUUGGGUUUUGGUUUUGGGGAAAGUAUUAUGUUACGCCGUUCGGAUCUGCACUU,-1.54
CACAGACAACACGCACCCACACAGACACAGAGGGAAGGGGUUGGGAUGGGGACAGGGUGCACAGCAGGGCGCGGUAGGACCCCAGCCCCU,-0.142
CCUCAGUGUCAUUUAUGAAAAGAGGGGACCAGAAGCCAAAGACUUAGUAUAUUUUCUUUUCCUCUGUCCCUUCCCCCAUAAGCCUCCAUU,1.04
UGUGCUACACAUCGUAUGUACCGAAUCGGCCCCCCCGGGGCCCCCCCGGGGCCCCCCCGGGGAAAGUAUUAUGUUACGCCGUUCGGAUCU,-2.62
UGGCCCUGGUGGCAUGCGCGGAGGAAGAGGUGGCCUCAUGGAUCGUGGUGGUCCCGGUGGAAUGUUCAGAGGUGGCCGUGGUGGAGACAG,-0.262
AAGUCCUGUGCUACACAUCGUAUGUACCGAAUCGGGGUUUUUGGGGAGGGGAGGGGAAAGUAUUAUGUUACGCCGUUCGGAUCUGCACUU,0.38
UUAGAAGAAGUGGAAAGGAAAAAACGCCAAAGGGAGUUGGAAAUUGAAGAACGAGAACGGCGUAGAGAGGAAGAGAGAAGACUUGGCGAU,1.66
UCCUGUGCUACACAUCGUAUGUACCGAAUCGGUUUUUUUGGAAAAAAAGGUUUUUUUGGAAAGUAUUAUGUUACGCCGUUCGGAUCUGCA,-2.76

# Block 4 — method: protein-binding microarray; molecule type: double-stranded DNA, one strand shown; sample: in vitro; tested at: 2540 nM top; notes: 60-bp whole probe; added: salmon DNA 0.4 mg/ml; reference: random background probes; reading: higher = stronger binding; constant ends, left off below: GCCTAGCAC … GTCTTGATTCGCTTGACGCTGCTG
# Target: Interferon regulatory factor 3, full length, phosphomimetic (IRF3, Homo sapiens, UniProt Q14653, residues 1-427, S386D/S396D/S398D/S402D/T404D/S405D)
# Target sequence (chain): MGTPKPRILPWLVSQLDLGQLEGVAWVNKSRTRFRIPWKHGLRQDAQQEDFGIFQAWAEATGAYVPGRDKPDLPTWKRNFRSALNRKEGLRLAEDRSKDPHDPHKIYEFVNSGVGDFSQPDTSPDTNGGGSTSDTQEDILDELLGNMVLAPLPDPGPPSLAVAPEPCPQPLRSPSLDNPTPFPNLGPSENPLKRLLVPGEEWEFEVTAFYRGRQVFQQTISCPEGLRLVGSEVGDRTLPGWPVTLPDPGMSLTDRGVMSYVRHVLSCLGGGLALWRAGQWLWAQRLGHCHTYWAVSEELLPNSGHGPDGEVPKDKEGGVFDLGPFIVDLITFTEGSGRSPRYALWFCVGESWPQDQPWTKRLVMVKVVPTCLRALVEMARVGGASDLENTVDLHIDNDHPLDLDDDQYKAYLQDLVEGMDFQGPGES
Oligonucleotide,fitted relative affinity [z-score]
CTAGGTTTCCTTCTCCTTTAGTGCTAG,10.6
TTAGGTATCCTACTGTTTTAGTGCTAG,2.29
GACGGTTGCGGGACTGGGGACGTGCTA,1.04
GACGAACTGCTTTTCCTGACGTGCTAG,0.0989
TATAAATTATCTTTAATCCTGTGCTAG,0.132
TAAGAACTGGGGTATCGATTAGTGCTA,-0.327
TTAGATTTCAGGTTTCGATTAGTGCTA,3.02
TCATTTTCATGCTCTTATACTGTGCTA,2.04
GACGATTTCAGACTGGGGACGTGCTAG,0.897
TTAGACATCGGGTTTCGATTAGTGCTA,1.42
CTCTGTCTGGGATGTAATTCCGTGCTA,-0.304
GACGGTTTCGGGGTTCGGGACGTGCTA,3.76
GACGGTATACTACTGCTGACGTGCTAG,-0.013
GACTATATCAGACTGGAGACGTGCTAG,0.216
CTTCCACTTAGGGTGGCTGGGTGCTAG,0.976
GACGATATCGGATTTCGAGACGTGCTA,1.22
TCACCTTGAACTTTGGCACTGTGCTAG,-0.00325
